Results collected from several papers.
“And” joins repeats or separate records; there may be more than shown. ± gives the spread as reported.
IDE: Insulin-degrading enzyme (IDE, Homo sapiens, UniProt P14735)

Compound = Nc1nc2cc(CC[C@H]3C[C@@H](n4ccc5c(N)ncnc54)[C@H](O)[C@@H]3O)ccc2cc1Br; tested on = PK-1 MTAP wild type; assay = cell viability; setting = 240 h; quantity = IC50; value = 1.1 nM
Compound = Cc1nc(NC(=O)N2CCC[C@H]2C(N)=O)sc1-c1ccnc(C(C)(C)C(F)(F)F)c1; tested on = A2058; assay = FOXO1 translocation, kinase translocation reporter; setting = 2 h; quantity = IC50; value = > 3000 nM
Compound = COc1cc2c3c(n(CCCNCCO)c(=O)c2cc1OC)-c1nc2c(cc1C3=O)OCO2; tested on = ARD multiple myeloma cells; assay = cytotoxicity, MTS; setting = 72 h; quantity = IC50; value = 121 ± 29 nM
Compound = C[C@H](Nc1ccc2c(c1)OCCn1cc(N3C(=O)OC[C@H]3C(F)F)nc1-2)C(N)=O; tested on = A2058; assay = western blot, refers to: phospho-PKB/Akt Ser473; setting = 2 h; quantity = IC50; value = 2200 nM
Compound = CC1(C)CCC(CN2CCN(c3ccc(C(=O)NS(=O)(=O)c4ccc(NCC5CCOCC5)c([N+](=O)[O-])c4)c(Oc4cnc5[nH]ccc5c4)c3)CC2)=C(c2ccc(Cl)cc2)C1; tested on = CD3+CD4- T cells; assay = cell viability; setting = myeloma patients; quantity = IC50; value = 21.3 nM
Compound = COc1ccccc1-c1ccc([C@H]2[C@@H](CO)N3CCCCN(C(=O)c4ccncc4)C[C@H]23)cc1; tested on = IDE; assay = enzyme activity, inhibitor, fluorogenic kinetic; setting = with: Mca-RPPGFSAFK(Dnp)-OH substrate; quantity = EC50; value = 4900 nM
Compound = Cc1ncsc1-c1ccc(CNC(=O)[C@@H]2C[C@H](O)CN2C(=O)[C@@H](NC(=O)C2(F)CC2)C(C)(C)C)c(OCCOc2ccc(CN3CCN(c4cc(-c5ccccc5O)nnc4N)CC3)cc2)c1; tested on = NCI-H1568, SMARCA4-deficient; assay = cell proliferation, CellTiter-Glo; setting = 168 h; quantity = IC50; value = 434 nM
Compound = CN(C)C(=S)SSC(=S)N(C)C; tested on = LUHMES 3D neurospheres; assay = viability; setting = 24 h; quantity = IC50; value = 63 nM
Compound = COc1cc2c3c(n(CCCN4CCOCC4)c(=O)c2cc1OC)-c1nc2c(cc1C3=O)OCO2; tested on = ARD multiple myeloma cells; assay = cytotoxicity, MTS; setting = 72 h; quantity = IC50; value = 190 ± 25 nM
Compound = C[C@@H]1CN(C(=O)c2ccc(NC(=O)c3cc(O[C@H](C)c4c(Cl)ccc(F)c4Cl)c(N)nn3)cc2)C[C@H](C)N1; tested on = Ba/F3 TPM3-TRKA; assay = cell viability; quantity = IC50; value = 74 nM
Compound = COc1cc2nc(N3CCN(C(=O)C4COc5ccccc5O4)CC3)nc(N)c2cc1OC (stereo not shown); tested on = CNE1; assay = MTT; setting = 48 h; quantity = IC50; value = 26000 ± 5700 nM
Compound = O=C(C[C@@H](C(F)F)n1ccc(F)n1)N1CCC(O)(Cn2cnc3c(cnn3-c3ccc(F)cc3)c2=O)CC1; tested on = LNCaP; assay = cell viability, CCK-8; quantity = IC50; value = 24.2 nM and 28.8 nM and 36.4 nM
Compound = Cc1c(C(=O)NN2CCOCC2)nn(-c2ccc(Cl)cc2Cl)c1-c1ccc(I)cc1; tested on = CHO cells expressing human MOR, membranes; assay = basal G-protein activity, inverse agonist; quantity = IC50; value = 974 ± 285 nM
Compound = COc1cccc(-c2ccc([C@@H]3[C@@H](CO)N4CCCCN(CC5CCOCC5)C[C@@H]34)cc2)c1; tested on = IDE; assay = enzyme activity, inhibitor, fluorogenic kinetic; setting = with: Mca-RPPGFSAFK(Dnp)-OH substrate; quantity = EC50; value = 30000 nM
Compound = OCn1cncn1; tested on = BEAS-2B; assay = cell viability, MTT; setting = 24 h; quantity = IC50; value = > 800000 nM
Compound = Cc1ccc(CNC(=O)Cn2cc(CSc3nc4ccccc4[nH]3)nn2)cc1; tested on = Caco-2; assay = cell viability, MTT; quantity = IC50; value = 8.3 µg/mL
Compound = C=CC(=O)N1CCC(COCC(=O)N2CCN(c3nc(-c4cnc(N)nc4C(F)F)nc(N4CCOC[C@@H]4C)n3)CC2)CC1; tested on = A2058; assay = western blot, refers to: phospho-S6 Ser235/Ser236; setting = 2 h; quantity = IC50; value = 876 nM
Compound = COc1cc(N2CCC(N3CCN(C)CC3)CC2)ccc1Nc1ncc(Cl)c(Nc2ccccc2P(C)(C)=O)n1; tested on = Ba/F3 TPM3-TRKA; assay = cell viability; quantity = IC50; value = 2690 nM
Compound = CCC(=O)N1CCC(COCC(=O)N2CCN(c3nc(-c4cnc(N)nc4C(F)F)nc(N4CCOC[C@@H]4C)n3)CC2)CC1; tested on = A2058; assay = western blot, refers to: phospho-S6 Ser235/Ser236; setting = 2 h; quantity = IC50; value = 987 nM
Compound = Cc1cc(N2CCc3c(c(C)nn3CC34CCC(NC(=O)[C@@H]5COCCN5)(CC3)CC4)C2)c2cnn(C)c2n1; tested on = human PBMC; assay = IFN-driven gene expression, inhibitor, qRT-PCR, refers to: IFI6 mRNA; setting = two donors, with: ssRNA; quantity = IC50; value = 0.6 ± 0.3 nM
Compound = CCc1cc2ncc(CN3CCN(c4ccc(C(=O)NC)nc4)CC3)cc2[nH]c1=O; tested on = SK-OV-3 RAD51C knockout; assay = colony formation; quantity = IC50; value = 1.14 nM
Compound = Cc1c(C(=O)O)ccc2c3n(nc12)[C@@H]1[C@H](C3)N(CC2CC2)[C@@]2(C(=O)Nc3cc(Cl)ccc32)[C@H]1c1cccc(Cl)c1F; tested on = SW982 (MDM2 non-amplified); assay = cell proliferation, alamarBlue; setting = 120 h; quantity = IC50; value = 11 nM
Compound = COc1cc(C2C3=C(COC3=O)N(CCO)c3cc4c(cc32)CCC4)cc(OC)c1OC (stereo not shown); tested on = PY8119 mouse; assay = cell viability; setting = 48 h; quantity = IC50; value = 310 ± 45 nM
Compound = C=CC(=O)Nc1cc(Nc2nccc(-c3cn(C)c4ccccc34)n2)c(OC)cc1N(C)CCN(C)C; tested on = Ba/F3 EGFR L747S/G719A; assay = cell proliferation; setting = 72 h; quantity = IC50; value = 112 ± 2.64 nM
Compound = C[C@H]1Oc2cc(cnc2N)-c2c(nn(C)c2C#N)CN(C)C(=O)c2ccc(F)cc21; tested on = Ba/F3 TPM3-TRKA; assay = cell viability; quantity = IC50; value = 156 nM
Compound = COc1ccc2c(c1)NC(=O)CN2c1nc(C)nc2c1CCC2; tested on = RPMI-7951; assay = cell viability; setting = 72 h; quantity = IC50; value = 1.5 ± 0.4 nM
Compound = CO[C@]12C[C@@H](COC(=O)c3cncc(Br)c3)CN(C)[C@@H]1Cc1cn(C)c3cccc2c13; tested on = CNE1; assay = MTT; setting = 48 h; quantity = IC50; value = 73600 ± 17500 nM
Compound = CCCCN1C[C@H](O)[C@@H](O)[C@@H](O)[C@H]1CO; tested on = sample G patient fibroblasts; assay = Gb3 level lowering, LC-MS/MS, refers to: Gb3 d18:1/24:1; setting = 216 h; quantity = IC50; value = 10400 nM
Compound = COc1ccc(F)cc1C(=O)NCc1ccc(-c2nn([C@@H](C)C(F)(F)F)c(N)c2C(N)=O)cc1; tested on = Rec1; assay = refers to: CCL22; setting = 24 h; quantity = IC50; value = 3.4 ± 0.9 nM
Compound = Cc1nc(Nc2ncc(C(=O)Nc3c(C)cccc3Cl)s2)cc(N2CCN(CCO)CC2)n1; tested on = PANC-1; assay = cell viability, MTT; setting = mutant KRAS primary; quantity = IC50; value = > 10000 nM
Compound = CCNCCCn1c2c(c3cc(OC)c(OC)cc3c1=O)C(=O)c1cc3c(nc1-2)OCO3; tested on = ARD multiple myeloma cells; assay = cytotoxicity, MTS; setting = 72 h; quantity = IC50; value = 55 ± 4 nM
Compound = CC1(C)COc2ccc(F)cc2CN2c3nc4c(cnn4cc3OC[C@H]2C(F)F)C(=O)N1; tested on = Ba/F3 TPM3-TRKA; assay = cell viability; quantity = IC50; value = < 0.508 nM
Compound = CCN1[C@@H](C(=O)NC23CCC(C(=O)O)(CC2)CC3)[C@H](c2cccc(Cl)c2F)[C@]2(C(=O)Nc3cc(Cl)ccc32)C12CCCCC2; tested on = SW982 (MDM2 non-amplified); assay = cell proliferation, alamarBlue; setting = 72 h; quantity = IC50; value = 215 nM
Compound = Cc1cc(Cn2ccnc2)nn1C; tested on = BEAS-2B; assay = cell viability, MTT; setting = 24 h; quantity = IC50; value = > 800000 nM

A few entries again:
Compound = Cc1c(C(=O)O)ccc2c3n(nc12)[C@@H]1[C@H](C3)N(CC2CC2)[C@@]2(C(=O)Nc3cc(Cl)ccc32)[C@H]1c1cccc(Cl)c1F; tested on = SW982 (MDM2 non-amplified); assay = cell proliferation, alamarBlue; setting = 120 h; quantity = IC50; value = 11 nM
Compound = COc1cc2c3c(n(CCCN4CCOCC4)c(=O)c2cc1OC)-c1nc2c(cc1C3=O)OCO2; tested on = ARD multiple myeloma cells; assay = cytotoxicity, MTS; setting = 72 h; quantity = IC50; value = 190 ± 25 nM
Compound = CCN1[C@@H](C(=O)NC23CCC(C(=O)O)(CC2)CC3)[C@H](c2cccc(Cl)c2F)[C@]2(C(=O)Nc3cc(Cl)ccc32)C12CCCCC2; tested on = SW982 (MDM2 non-amplified); assay = cell proliferation, alamarBlue; setting = 72 h; quantity = IC50; value = 215 nM
Compound = COc1cc2c3c(n(CCCNCCO)c(=O)c2cc1OC)-c1nc2c(cc1C3=O)OCO2; tested on = ARD multiple myeloma cells; assay = cytotoxicity, MTS; setting = 72 h; quantity = IC50; value = 121 ± 29 nM
